Measured values pooled from the literature.
A part holds a random share of what one study measured. Substitutions count along the parent as printed.

Sample 1
Target: Fragile X messenger ribonucleoprotein 1, C-terminal low-complexity region (Fmr1, Mus musculus, UniProt P35922)
Technique: RNA Bind-n-Seq
Molecule type: RNA
Sample: in vitro
Tested at: 200 nM
Setting: whole 134-nt RNA, ends assumed
Together with: 150 mM KCl
Relative to: input library
Direction: higher = stronger binding
`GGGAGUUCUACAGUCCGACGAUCUUACUACCUCCGCCUUCAUUUCCGUCAGCAAUCCCGGCGCGGGCUCCCCGGCCCCCGCCAGCCCGCCUCCCCUCGCUGUGCCCGGGACCGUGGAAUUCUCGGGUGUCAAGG` has a log2 enrichment of 0.389.
With `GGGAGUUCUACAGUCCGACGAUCAGUCCUGUGCUACACAUCGUAUGUACCGAAUCGGGGUGGGGAAAGGGGUUUUUGGGGAAAGUAUUAUGUUACGCCGUUCGGAUCUGCACUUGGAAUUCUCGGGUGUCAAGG` the log2 enrichment was 0.921.
The log2 enrichment of `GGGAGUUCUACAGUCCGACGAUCCUCAAGUCCUGUGCUACACAUCGUAUGUACCGAAUCGGAAGGGAAGGGAAGGGGAAAGUAUUAUGUUACGCCGUUCGGAUCUGCACUUCCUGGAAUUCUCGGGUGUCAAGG` is reported as 0.346.
`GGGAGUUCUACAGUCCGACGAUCUCCUGUGCUACACAUCGUAUGUACCGAAUCGGCCCCCCGGGCCCCCCGGGCCCCCCGGGGAAAGUAUUAUGUUACGCCGUUCGGAUCUGCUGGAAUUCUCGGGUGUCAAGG` gave a log2 enrichment of -0.526.
`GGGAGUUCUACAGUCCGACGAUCUGCUGGAGUGGCAGAAGACUUUUGAGGAGAAGCUCACGCCGUUGCUGAGUGUGCGGGAGUCACUCUCAGAGGAAGAGGCCCAGAAGAUGGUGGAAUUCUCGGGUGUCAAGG` has a log2 enrichment of -1.45.
With `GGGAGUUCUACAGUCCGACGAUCGCAGGAAGUAAAAACAAAUGGAAAUGCUUCGGAUAGUGGCAGGGGUGGGGGUUGCUAAGGAAAGGGUGGGAUGGGAGUGGGUUAAGAGUUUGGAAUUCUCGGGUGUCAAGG` the log2 enrichment was 0.304.
With `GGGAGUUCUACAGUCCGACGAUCUCCUGUGCUACACAUCGUAUGUACCGAAUCAAAUUUUUAAAUUUUUUUAAACCCCCAAAAAAGUAUUAUGUUACGCCGUUCGGAUCUGCAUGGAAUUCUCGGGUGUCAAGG` the log2 enrichment was 0.429.
`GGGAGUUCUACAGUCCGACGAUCUCUCUUAUGCUAUUGGAGUUUCUCAUCCAUUAUCUAUCUCCAUUUUCCAUUAUGGUACCUCUCAGAAGAGUGAGAGAGAGCUAUUAGAGAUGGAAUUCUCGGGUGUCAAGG` has a log2 enrichment of -1.24.
For `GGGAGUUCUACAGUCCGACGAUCCAAGUCCUGUGCUACACAUCGUAUGUACCGAAUCGGAAAAAGGUUUUUUUGGAGGAAAGUAUUAUGUUACGCCGUUCGGAUCUGCACUUCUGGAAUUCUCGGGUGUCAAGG`, the log2 enrichment was -0.976.

Sample 2
Target: Prothrombin, mature alpha-thrombin (F2, Homo sapiens, UniProt P00734)
Technique: aptamer microarray, sandwich
Molecule type: DNA with 2'F-ANA
Sample: in vitro
Tested at: 200 nM
Setting: whole 15-mer aptamer, many near background
Together with: Cy3 exosite-II aptamer, 400 nM
Direction: higher = stronger binding
Sequence: GGTTGGTGTGGTTGG
For `2'F-ANA at 1 2 3 5 11 12 13`, “mean fluorescence intensity” read 77.1 a.u.
`2'F-ANA at 1 3 5 8 9 11` — result for “mean fluorescence intensity”: 58.7 a.u.
Under “mean fluorescence intensity”, `2'F-ANA at 5 6 9 12 13 15` is recorded as 93.8 a.u.
`2'F-ANA at 2 3 7 8 10 12 15`: “mean fluorescence intensity” 506 a.u.
`2'F-ANA at 1 2 4 6 9 10 12 13`: “mean fluorescence intensity” 52.5 a.u.
`2'F-ANA at 1 3 5 6 7 9 10 13 15`: “mean fluorescence intensity” 82.2 a.u.
`2'F-ANA at 1 2 4 5 7 8 10 11 13 14 15`: “mean fluorescence intensity” 51.6 a.u.
For `2'F-ANA at 4 5 7`, “mean fluorescence intensity” read 86.8 a.u.
For `2'F-ANA at 1 2 3 5 6 8 10 11 15`, “mean fluorescence intensity” read 60.9 a.u.
For `2'F-ANA at 1 2 3 7 8 9 11 13 14 15`, “mean fluorescence intensity” read 76.4 a.u.
`2'F-ANA at 1 5 6 7 10 11 13 15` — result for “mean fluorescence intensity”: 44.3 a.u.
For `2'F-ANA at 1 2 3 4 6 7 11 12 15`, “mean fluorescence intensity” read 243 a.u.
For `2'F-ANA at 2 4 9 10 11 14 15`, “mean fluorescence intensity” read 64.6 a.u.
For `2'F-ANA at 3 4 7 8 10 13`, “mean fluorescence intensity” read 266 a.u.
For `2'F-ANA at 1 3 4 5 6 11 14 15`, “mean fluorescence intensity” read 54.1 a.u.
For `2'F-ANA at 1 3 5 7 8 11 12 14`, “mean fluorescence intensity” read 47.6 a.u.
`2'F-ANA at 2 4 6 7 8 11 12 13 14 15` — result for “mean fluorescence intensity”: 108 a.u.
For `2'F-ANA at 2 4 5 6 9 13`, “mean fluorescence intensity” read 49.9 a.u.
`2'F-ANA at 1 2 3 5 8 10 11 12 13`: “mean fluorescence intensity” 50.3 a.u.
Under “mean fluorescence intensity”, `2'F-ANA at 2 3 5 6 11 13` is recorded as 92.7 a.u.
For `2'F-ANA at 1 2 3 4 5 10 11 12 15`, “mean fluorescence intensity” read 49.4 a.u.
Under “mean fluorescence intensity”, `2'F-ANA at 4 5 6 7 9 10 11 12 13` is recorded as 94.5 a.u.

Sample 3
Target: ABI1, truncated, D143A, DHFR fusion (Arabidopsis thaliana)
Technique: DHFR PCA, deep sequencing
Sample: yeast
Setting: methotrexate growth selection, single substitutions
Together with: (+)-ABA 0.39 µM
Relative to: wild-type fitted maximum
Direction: higher = stronger binding
Starting sequence: PYL1, truncated, DHFR fusion (Arabidopsis thaliana); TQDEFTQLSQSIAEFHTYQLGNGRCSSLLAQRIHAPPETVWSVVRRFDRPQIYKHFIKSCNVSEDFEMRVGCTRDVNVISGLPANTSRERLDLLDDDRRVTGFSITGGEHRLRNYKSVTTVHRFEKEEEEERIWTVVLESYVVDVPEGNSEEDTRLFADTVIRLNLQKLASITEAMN; partner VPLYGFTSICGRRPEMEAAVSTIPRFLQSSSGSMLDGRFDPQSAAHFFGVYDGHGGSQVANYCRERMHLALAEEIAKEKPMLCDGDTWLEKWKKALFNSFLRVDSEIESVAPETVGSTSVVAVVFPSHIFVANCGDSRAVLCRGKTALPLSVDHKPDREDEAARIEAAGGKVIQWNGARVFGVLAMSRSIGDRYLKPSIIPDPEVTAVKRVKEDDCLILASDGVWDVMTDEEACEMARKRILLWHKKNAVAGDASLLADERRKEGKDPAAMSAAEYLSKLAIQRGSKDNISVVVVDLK
Under “relative binding score”, `E152S` is recorded as 22.9%.
Under “relative binding score”, `E38C` is recorded as -0.836%.
`A170C`: “relative binding score” 18.2%.
`T17L` — result for “relative binding score”: -4.2%.
For `E130K`, “relative binding score” read 53.1%.
`G23I`: “relative binding score” -5.57%.
`I105W`: “relative binding score” -13.8%.
`E147W` — result for “relative binding score”: -0.538%.
`E125F`: “relative binding score” 40.9%.
For `D75L`, “relative binding score” read 58.5%.
`D95K`: “relative binding score” -11.6%.
`A84S` — result for “relative binding score”: 33.5%.
`F103V`: “relative binding score” -9.03%.
Under “relative binding score”, `S27P` is recorded as -0.667%.
`E128P`: “relative binding score” 31.3%.
`R32A` — result for “relative binding score”: 27.7%.
`D144N` — result for “relative binding score”: 4.03%.
For `I162Q`, “relative binding score” read 18.5%.
`R74A` — result for “relative binding score”: -4.33%.
`N22T`: “relative binding score” 50.3%.
`Y53V` — result for “relative binding score”: -5.18%.
Under “relative binding score”, `D75C` is recorded as 44.6%.
`G148A` — result for “relative binding score”: 1.56%.
For `D153Y`, “relative binding score” read 0.372%.

Sample 4
Target: Max-binding protein MNT, bHLH-zipper, MAX partner unstated (MNT, Homo sapiens, UniProt Q99583, residues 220-300)
Technique: protein-binding microarray
Molecule type: double-stranded DNA, one strand shown
Sample: in vitro
Tested at: not given
Setting: k-mer, scored over probes, only values ≥0.25
Direction: higher = stronger binding
Target sequence (chain): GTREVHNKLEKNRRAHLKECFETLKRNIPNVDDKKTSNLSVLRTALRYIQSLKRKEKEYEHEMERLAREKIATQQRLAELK
`CACGCCCG` gave an E-score of 0.319.
The E-score of `TGCCGGCA` is reported as 0.293.
For `AAACCCCA`, the E-score was 0.268.
`AAGCATGC` gave an E-score of 0.413.
`ACTTGCAC` has an E-score of 0.263.
`ACAACACG` has an E-score of 0.329.
With `ATGCGCCA` the E-score was 0.265.
For `CTACCCAC`, the E-score was 0.295.
The E-score of `GCGTGCCA` is reported as 0.396.
`AACCCATG` has an E-score of 0.261.
The E-score of `TGACCCCA` is reported as 0.261.
`ACGTGAGC` gave an E-score of 0.366.
`CACGTTTA` gave an E-score of 0.369.
For `CAGCCCCG`, the E-score was 0.258.
`CGGGACAC` has an E-score of 0.283.
For `CACCGGCA`, the E-score was 0.254.

Sample 5
Target: Eukaryotic initiation factor 4A-I (EIF4A1, Homo sapiens, UniProt P60842, residues 1-406, full length assumed)
UniProt P60842, sequence (whole entry, looked up): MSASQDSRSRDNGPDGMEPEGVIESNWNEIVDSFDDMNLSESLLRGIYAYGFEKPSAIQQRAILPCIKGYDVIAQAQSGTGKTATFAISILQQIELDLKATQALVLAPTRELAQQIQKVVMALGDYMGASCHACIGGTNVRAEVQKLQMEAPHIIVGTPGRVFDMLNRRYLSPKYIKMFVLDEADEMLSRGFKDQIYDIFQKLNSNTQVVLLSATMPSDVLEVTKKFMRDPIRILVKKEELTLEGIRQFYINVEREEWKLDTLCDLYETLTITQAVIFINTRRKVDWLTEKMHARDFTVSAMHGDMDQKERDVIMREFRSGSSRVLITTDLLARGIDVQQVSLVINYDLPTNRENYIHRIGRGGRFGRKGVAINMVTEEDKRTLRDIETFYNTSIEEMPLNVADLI
Technique: RNA Bind-n-Seq
Molecule type: RNA
Sample: in vitro
Tested at: 15 pmol
Setting: 4-mer, random 30-nt RNA, single round
Together with: 3 µM RocA, 2 mM AMP-PNP
Relative to: mean of 4-mers
Direction: higher = stronger binding
For `UCAU`, “4-mer enrichment Z-score” read -1.59.
For `GUGG`, “4-mer enrichment Z-score” read 1.86.
Under “4-mer enrichment Z-score”, `ACUG` is recorded as -0.213.
Under “4-mer enrichment Z-score”, `CUCG` is recorded as -0.897.
For `CAGU`, “4-mer enrichment Z-score” read -0.637.
Under “4-mer enrichment Z-score”, `GUAA` is recorded as 1.08.
Under “4-mer enrichment Z-score”, `GGUU` is recorded as 0.758.
For `CGUA`, “4-mer enrichment Z-score” read -0.0937.
`AAGC`: “4-mer enrichment Z-score” 0.411.
`CCCU` — result for “4-mer enrichment Z-score”: -1.
`GGCU` — result for “4-mer enrichment Z-score”: -0.0555.
`GUCG`: “4-mer enrichment Z-score” -0.244.
Under “4-mer enrichment Z-score”, `AAAU` is recorded as 1.42.
For `AAAG`, “4-mer enrichment Z-score” read 2.06.
For `GCCC`, “4-mer enrichment Z-score” read -0.83.

Sample 6
Target: Histone acetyltransferase KAT6A, winged helix 2, GST fusion (KAT6A, Homo sapiens, UniProt Q92794, residues 85-181)
Technique: protein binding microarray
Molecule type: double-stranded DNA, one strand shown
Sample: in vitro
Tested at: not given
Setting: 8-mer, flanks averaged, mean of 2 arrays, mostly near background
Relative to: not given
Direction: higher = stronger binding
Construct (chain): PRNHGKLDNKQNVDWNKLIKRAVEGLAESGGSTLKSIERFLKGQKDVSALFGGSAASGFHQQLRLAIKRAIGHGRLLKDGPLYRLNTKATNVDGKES
The E-score of `AATACTCG` is reported as -0.211.
`ACAGGGAG` has an E-score of -0.0344.
For `CAAACACC`, the E-score was 0.0909.
The E-score of `CGATCGCG` is reported as 0.063.
The E-score of `ATAAGTCG` is reported as -0.2.
For `AGTTAACT`, the E-score was -0.0578.
`AGAGTACG` has an E-score of -0.0924.
With `TCTGACCA` the E-score was 0.0624.
For `AGCTCCCT`, the E-score was -0.0749.
For `CTGTGGAA`, the E-score was 0.105.
`ATCGAGGG` has an E-score of 0.0291.
For `ACCGGTAT`, the E-score was -0.0541.
`CCTGACTA` has an E-score of -0.0309.
`ACTACCGC` gave an E-score of 0.0522.
`ACCAGTCA` gave an E-score of -0.183.
`AGGTCATC` has an E-score of -0.177.
`AACATTAG` gave an E-score of -0.232.
The E-score of `AAACCCCA` is reported as -0.149.
`AATCCCAC` has an E-score of -0.0253.
`GATCGCGC` gave an E-score of 0.0402.
The E-score of `GGGGCACC` is reported as 0.244.
`ACTGTCCT` has an E-score of -0.102.
`GGCACTCA` has an E-score of -0.196.
With `GTAGCAAC` the E-score was 0.0353.
With `GGCTAACC` the E-score was -0.0948.
